Published values pooled from the literature.
Numbered parts are unrelated; each lists some results of a single study.

Block 1 — method: aptamer microarray, sandwich; molecule type: DNA with 2'F-ANA; medium: in vitro; tested at: 200 nM; added: Cy3 exosite-II aptamer, 400 nM; reading: higher = stronger binding; oligonucleotide: GGTTGGTGTGGTTGG
Target: Prothrombin, mature alpha-thrombin (F2, Homo sapiens, UniProt P00734)
Notes: whole 15-mer aptamer, many near background
| Modification | mean fluorescence intensity [a.u.] |
| --- | --- |
| 2'F-ANA at 2 4 5 6 11 15 | 55.2 |
| 2'F-ANA at 2 6 7 8 10 11 13 15 | 101 |
| 2'F-ANA at 6 7 9 11 15 | 348 |
| 2'F-ANA at 1 6 8 9 10 14 | 48.9 |
| 2'F-ANA at 2 3 5 6 9 14 15 | 48.1 |
| 2'F-ANA at 2 4 5 7 9 14 15 | 45.9 |
| 2'F-ANA at 3 7 9 13 14 15 | 577 |
| 2'F-ANA at 4 5 6 7 9 12 | 149 |
| 2'F-ANA at 4 6 9 10 12 13 15 | 104 |
| 2'F-ANA at 2 4 5 6 7 8 9 10 11 13 14 15 | 143 |
| 2'F-ANA at 3 4 6 7 8 9 13 14 | 238 |
| 2'F-ANA at 1 4 5 10 11 13 14 15 | 54.1 |
| 2'F-ANA at 2 3 4 6 7 9 12 14 15 | 240 |
| 2'F-ANA at 3 6 7 8 9 11 13 14 | 460 |
| 2'F-ANA at 1 2 3 8 9 11 12 14 | 91.5 |
| 2'F-ANA at 1 4 7 8 10 13 14 15 | 97.5 |
| 2'F-ANA at 1 2 8 9 10 11 13 | 50.2 |
| 2'F-ANA at 1 2 4 5 7 9 13 | 47.4 |
| 2'F-ANA at 1 2 3 5 6 7 11 12 | 83.3 |
| 2'F-ANA at 1 2 3 4 5 6 7 8 10 12 13 | 52.4 |
| 2'F-ANA at 2 4 7 8 9 14 15 | 111 |
| 2'F-ANA at 1 2 3 5 6 8 10 13 | 53.9 |
| 2'F-ANA at 2 3 6 10 11 15 | 306 |
| 2'F-ANA at 3 4 5 7 9 10 12 13 14 | 50.3 |
| 2'F-ANA at 1 2 5 6 10 11 13 14 | 51 |

Block 2 — method: RNA Bind-n-Seq; molecule type: RNA; medium: in vitro; tested at: not given; reference: input RNA pool; reading: higher = stronger binding
Target: RING finger protein unkempt homolog, zinc fingers 1-6, GST-SBP tag (UNK, Homo sapiens, UniProt Q9C0B0, residues 30-357)
Chain of UniProt Q9C0B0 (30-357, looked up): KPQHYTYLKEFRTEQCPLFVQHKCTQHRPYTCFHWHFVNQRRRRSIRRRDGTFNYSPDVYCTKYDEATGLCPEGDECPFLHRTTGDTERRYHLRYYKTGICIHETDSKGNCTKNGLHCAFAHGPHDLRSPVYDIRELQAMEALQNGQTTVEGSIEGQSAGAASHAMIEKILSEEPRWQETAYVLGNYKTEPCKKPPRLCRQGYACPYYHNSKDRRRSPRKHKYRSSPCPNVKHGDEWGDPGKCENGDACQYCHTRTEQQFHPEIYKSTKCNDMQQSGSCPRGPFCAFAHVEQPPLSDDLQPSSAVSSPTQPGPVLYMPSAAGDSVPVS
Notes: RNA with constant flanks, human-mouse chimeric sites, ends assumed
Constant ends, left off below: GGGAGUUCUACAGUCCGACGAUC … CAACAGAGGAUUGAGCAUCA
| Oligonucleotide | bound/input enrichment [ratio] |
| --- | --- |
| GAGUCGAGCAAACUUGAAACAAUUCGUUAUCUUGCAGCCUCAGUGUUCACUUGCUUGGCGAUAGCAUUGGGGUUUUAUAUAGAUUCUAAGGAGAACUUUAAUGCUCACUGCCGCUGCUGC | 0.177 |
| AAAGAGUGGAUAGAGUGUGCACACGGGAUCGGUUAUACUCGGGCAGAAAAGGAGUGCAAGAUAGAGUUCGAUGACUUCGAAGAGUGCUUGCUUCGGUACAAAACGAUGAGGCGAAUGCAU | 0.325 |
| UUCAAAGAAAAGGGCAGUUCAUAAAUAUCAUAAGUAACUCUGGGGGAGGGAAAUUCUGUUCUUUUGUUUAAUUUUCCCCCAAAUGAAACCAACAUGCGUGUUGAAGAACUGAGAAAAAAU | 0.275 |
| GAUGAUAAUCACACAAACAAGUCACUGUUACAUGACCAGAGUUGUACUUCUUUUCCUGAUUAAUAUUCUCCCUGGAACCACUGGUCAAGGGGAAUCAAGACGACAAGAACCUGGGGACUU | 0.213 |
| GAGUCGAGCAAACUUGAAACAAUUCGUUUUACAAAAACCUCAGUGUUCACUUGCUUGGCGAUAGCAUUGGGGUUUUAUAGGUUCUGGAAGGAGAACUGACGAUGAUGCUGCCGCUGCUGC | 0.241 |
| CAGCCUCAGAGCCCUGACUUCCUGGAUAUUACCAACCCUAAAGCGGUAUUAGAAAAUGCAUUGAGAAACUUUGCCUGUCUGACGACUGGAGAUGUGAUUGCUAUCAACUACAAUGAGAAG | 0.477 |
| AUCAAAUAUUUUGGGGACAUCAUUAGUGUGGGACAGAGACUGUUGCAAGGAGCUCGGAUCUUAGGGAUUCCAGUUAUCAUAACGGAACAAUACCCCAAAGGUCUUGGCAGCACCGUUCAA | 0.145 |
| ACCAUUUUCGCGGUUCAAGGUUUUGUGGUAGUUCACUUACGGUAUUAAAUUAUUAUUCUGCUUAGCUUAUAAUAAGGAUUACAAUUGUUAAAGAGGUUACUGAAUGUUACUCUGAAACUU | 0.925 |
| UGUAACUUAUCUGUAAAAGGUUCCCCCCCCUACUGUCAAAAAAAUAUGCAUGUAUAGUAAUUAGGACUUCAUUCCUCCAUGUUUUCUUCCCUUAUCUUACUGUCAUUGUCCUUAAACCUU | 2.09 |
| CGGAGCCCCUCCCUCUCACAGGCCCAAGAUAUAACCCACCAGUGCCUUUUGUCUUCCUGUCAGCUCUGUCAAUCACGCCUGUCCUCUCACGCCCACACCAAGUGCCCCCACCCCUAAGGG | 0.407 |
| UGUGCAUUAUGAUGCUUAGAUGGUUUUUGCAAAAGCAGAAAUCGCUGCAAGGUAAUCACAAUAGAUAAAAGUGGUAUUUUAAACCUUUGAAAUAAAUGGAUGUAACUGUACCUUGGUACA | 0.66 |

Block 3 — method: universal PBM; molecule type: double-stranded DNA, one strand shown; medium: in vitro; tested at: 600 nM; reading: higher = stronger binding
Target: Sal-like protein 4, full length isoform A (SALL4, Homo sapiens, UniProt Q9UJQ4, residues 1-1053)
Chain of UniProt Q9UJQ4 (whole entry, looked up): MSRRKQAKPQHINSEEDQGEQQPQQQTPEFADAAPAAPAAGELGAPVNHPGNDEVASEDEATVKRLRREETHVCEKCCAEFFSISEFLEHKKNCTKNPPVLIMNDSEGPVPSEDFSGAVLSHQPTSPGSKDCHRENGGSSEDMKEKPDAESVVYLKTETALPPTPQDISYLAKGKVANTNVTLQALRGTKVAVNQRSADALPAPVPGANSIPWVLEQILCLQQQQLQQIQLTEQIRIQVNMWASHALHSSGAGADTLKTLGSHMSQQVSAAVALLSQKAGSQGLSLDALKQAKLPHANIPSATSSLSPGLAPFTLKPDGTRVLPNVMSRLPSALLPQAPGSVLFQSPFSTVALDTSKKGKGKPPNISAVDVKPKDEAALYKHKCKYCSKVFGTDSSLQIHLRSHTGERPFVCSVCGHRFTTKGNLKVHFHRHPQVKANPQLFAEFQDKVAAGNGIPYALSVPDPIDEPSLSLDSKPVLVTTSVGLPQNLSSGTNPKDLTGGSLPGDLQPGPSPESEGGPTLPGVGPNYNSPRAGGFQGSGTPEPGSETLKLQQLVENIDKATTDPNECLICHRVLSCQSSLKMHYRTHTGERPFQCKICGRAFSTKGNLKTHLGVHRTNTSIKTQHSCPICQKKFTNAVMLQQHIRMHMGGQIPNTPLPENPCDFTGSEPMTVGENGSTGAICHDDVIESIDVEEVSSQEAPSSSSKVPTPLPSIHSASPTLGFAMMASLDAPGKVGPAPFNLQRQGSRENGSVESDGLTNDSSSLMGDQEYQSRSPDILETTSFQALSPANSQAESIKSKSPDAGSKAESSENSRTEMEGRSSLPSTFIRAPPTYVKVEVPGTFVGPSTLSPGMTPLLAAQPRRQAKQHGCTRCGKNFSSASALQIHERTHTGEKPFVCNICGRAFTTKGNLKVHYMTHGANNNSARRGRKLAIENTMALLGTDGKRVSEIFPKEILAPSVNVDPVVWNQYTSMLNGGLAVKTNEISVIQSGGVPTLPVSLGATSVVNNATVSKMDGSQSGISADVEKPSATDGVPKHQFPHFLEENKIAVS
Notes: 8-mer, flanks averaged, mean of replicates
| Oligonucleotide | E-score |
| --- | --- |
| CCTCCGAA | -0.238 |
| AAATGTAA | 0.286 |
| ACGCGTAC | -0.0686 |
| GCCGGTCC | -0.415 |
| CCCTCGCG | -0.291 |
| GGTTGAAC | -0.0285 |
| AATGTTGG | 0.148 |
| CGCGCCTC | -0.295 |
| ATTCCCAA | 0.312 |
| CACGCCAG | -0.348 |
| ATCACGGA | 0.0903 |
| CGACACGA | -0.0984 |
| ATACAACA | 0.285 |
| ATAAGCCC | -0.0472 |
| CGCGCGCA | -0.212 |
| TACCACAA | 0.273 |
| AGCTACGA | -0.06 |
| AAGCCTAC | -0.037 |
| CCGGTGGC | -0.377 |

Block 4 — method: protein binding microarray; molecule type: double-stranded DNA, one strand shown; medium: in vitro; tested at: not given; reference: not given; reading: higher = stronger binding
Target: Histone acetyltransferase KAT6A, both winged helices, GST fusion (KAT6A, Homo sapiens, UniProt Q92794, residues 1-181)
Notes: 8-mer, flanks averaged, mean of 2 arrays, mostly near background
Target sequence (chain): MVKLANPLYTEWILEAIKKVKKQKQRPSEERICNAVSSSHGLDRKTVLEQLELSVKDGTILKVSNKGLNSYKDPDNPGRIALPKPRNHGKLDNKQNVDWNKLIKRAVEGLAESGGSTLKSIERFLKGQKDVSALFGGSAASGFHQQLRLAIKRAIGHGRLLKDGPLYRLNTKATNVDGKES
| Oligonucleotide | E-score |
| --- | --- |
| AGAGGCAA | -0.141 |
| AAAAGGAG | -0.0803 |
| ACCCGTCG | 0.283 |
| ACGCCGAC | 0.243 |
| ATACGTGG | 0.0105 |
| AGCGAGCG | 0.181 |
| AACAACAG | -0.0711 |
| CGATGTAG | -0.0853 |
| AGTCTCGC | -0.0414 |
| ACCTGCTC | -0.109 |
| AATGTCAC | -0.0372 |
| CTTAAGAA | -0.0525 |
| TAAATCTA | -0.0652 |
| GCAAGTAC | -0.00178 |
| ACTTTTTG | -0.141 |
| GAAACACA | 0.167 |
| GCACAAAC | -0.0872 |
| GGTCCATA | -0.0466 |
| CTACATAC | 2e-05 |
| CGTCTGGA | 0.00218 |
| AACGCAGG | 0.052 |

Block 5 — method: RNA Bind-n-Seq; molecule type: RNA; medium: in vitro; tested at: 365 nM; reference: no-protein control; reading: higher = stronger binding
Target: RNA binding protein fox-1 homolog 2, RRM domain, GST-SBP tag (RBFOX2, Homo sapiens, UniProt O43251-10, residues 100-194)
Notes: natural RNA segment, single round, ends assumed
Constant ends, left off below: GGGAGUUCUACAGUCCGACGAUC … UGGAAUUCUCGGGUGCCAA
Residues (chain): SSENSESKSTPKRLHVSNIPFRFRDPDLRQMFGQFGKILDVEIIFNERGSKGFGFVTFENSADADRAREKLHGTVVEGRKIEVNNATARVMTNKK
| Oligonucleotide | RBNS enrichment (R) |
| --- | --- |
| AAUGCUGUGUAGCUGGAGUUCACGCUCACAGCCUUUAGCGCUUUGUUGCUUGUUUUGUUUUAAUCUGAAGGUUCUGGUAACCUGUUUUUGUUUGUUUGUUUAUUUGUUUU | 38.1 |
| UGACUCCCUAAGUGUACAAGUUGGGAAUAGUACAGGGCCAAGUUCAAGUCGCAUAUGCUGUACUGUUCCUCCUGCAAAUGUGGGGAAAGAAGAGGGAGAUACUAGAGGAA | 1.92 |
| UGCAGUGGUUCCUAGGCCAUUCUUCAUCUGCUCUGGACAUCUCAGUCAUACCCAAUGCUCAGUGGAUCAUGACCAAACUCCUGUCAUGUGGAUGCACGUGAGUGGGUAGC | 0.814 |
| CCGUCCCUCAGUGAUACGUACAGCCAAAAAGGACCAACUGGCUUCUGUGCACUAGCCUGUGAUUAACUUGCUUAGUAUGGUUCUCAGAUCUUGACAGUAUAUUUGAAACU | 0.369 |
| CUGAAGAUGCCGAACCCAUGGUCACUUAUAUAUUUUUUGUAAUUACUAUAUUCUAGUUUGGAGUACUUGCUGUAGGAUACAAGCUGUCUUUGCACUAGCUCUAAAGAAGA | 0.336 |
| UGCAUCUUAGACCUCUUGAGCUGUGAAUUAGCACUAUUUUCUAUGGUUACUUAUUAUCUAUUGUUUUAUACUUUCUAUGUUCAUUUCAAAUAAUGUUAAUGUUAUUCAAU | 1.17 |
| GUCUCCAGAUCUGAUGACCUCUCACAGUGCUCAUGAGCCUUUUGCCCACCACGGACUGCUCAGCCUGCUUCUCUCCCGGAACUUAAGGUCCAGCCAGACUUCAGGAUCUG | 0.427 |
| UACAAGUUGGUCAAAAUAUUCCAUGUACAAAUAGGGCUUCUGUGUCCAUAGCCUUGUAAGAGAUACUGAUUGUAUCUGAAAUUAUUUUUUAAAAAAAUAAAUUAUCCUGC | 0.846 |
| UGAUCAAUGAGGGCGGGGCCUGGCGUCUGAUCUGGGGCCGCCCUUACGGGGCAGGGCUCAGUCCUGACGCUUGCCACCUGCUCCUACCCGGCCAGGAUGGCUGAGGGCGG | 0.185 |
| GCCCUCUUUAUUUUGUUGUUUGUUUCUCCAGAGAGUAAACGCUUUGUAGUUCUUUCUUUAAAAAACAUUUUUUUUAAAGAAGAAGAAGCCACUUGAACCCUCAAUAAAGG | 0.516 |
| AGGAGGCUCACCCAUUCUUCUGAAUAGGAACUGGGUGUUCCCACCCCCCAAGGACUGCAGGGCUUUCCCAAGCUGAGGCAGGAACGUGAGGCCAGGGAAGAGUGAGCUUC | 0.341 |
| CAUUGUUUUGUGCUUUUGAAGAAGUUUUAUUUAUAUGCAUUAUUUUUAUUGUUUUUACUUUGACUGGAAUGUUUAUUGUGAACUGUAUUUAUUUUUAUACUUUGAUUUUC | 1.39 |

For quick reference, copied from above (block 4):
| Oligonucleotide | E-score |
| --- | --- |
| ATACGTGG | 0.0105 |
| ACCCGTCG | 0.283 |
| CGTCTGGA | 0.00218 |
| CTTAAGAA | -0.0525 |
| GCACAAAC | -0.0872 |
| CGATGTAG | -0.0853 |
| ACGCCGAC | 0.243 |
| AGTCTCGC | -0.0414 |
| ACTTTTTG | -0.141 |
| CTACATAC | 2e-05 |
| AATGTCAC | -0.0372 |
| GGTCCATA | -0.0466 |
